# Results gathered from unrelated publications.
# Numbered parts are unrelated; each lists some results of a single study.
# Sequence of UniProt P17948 (whole entry, looked up): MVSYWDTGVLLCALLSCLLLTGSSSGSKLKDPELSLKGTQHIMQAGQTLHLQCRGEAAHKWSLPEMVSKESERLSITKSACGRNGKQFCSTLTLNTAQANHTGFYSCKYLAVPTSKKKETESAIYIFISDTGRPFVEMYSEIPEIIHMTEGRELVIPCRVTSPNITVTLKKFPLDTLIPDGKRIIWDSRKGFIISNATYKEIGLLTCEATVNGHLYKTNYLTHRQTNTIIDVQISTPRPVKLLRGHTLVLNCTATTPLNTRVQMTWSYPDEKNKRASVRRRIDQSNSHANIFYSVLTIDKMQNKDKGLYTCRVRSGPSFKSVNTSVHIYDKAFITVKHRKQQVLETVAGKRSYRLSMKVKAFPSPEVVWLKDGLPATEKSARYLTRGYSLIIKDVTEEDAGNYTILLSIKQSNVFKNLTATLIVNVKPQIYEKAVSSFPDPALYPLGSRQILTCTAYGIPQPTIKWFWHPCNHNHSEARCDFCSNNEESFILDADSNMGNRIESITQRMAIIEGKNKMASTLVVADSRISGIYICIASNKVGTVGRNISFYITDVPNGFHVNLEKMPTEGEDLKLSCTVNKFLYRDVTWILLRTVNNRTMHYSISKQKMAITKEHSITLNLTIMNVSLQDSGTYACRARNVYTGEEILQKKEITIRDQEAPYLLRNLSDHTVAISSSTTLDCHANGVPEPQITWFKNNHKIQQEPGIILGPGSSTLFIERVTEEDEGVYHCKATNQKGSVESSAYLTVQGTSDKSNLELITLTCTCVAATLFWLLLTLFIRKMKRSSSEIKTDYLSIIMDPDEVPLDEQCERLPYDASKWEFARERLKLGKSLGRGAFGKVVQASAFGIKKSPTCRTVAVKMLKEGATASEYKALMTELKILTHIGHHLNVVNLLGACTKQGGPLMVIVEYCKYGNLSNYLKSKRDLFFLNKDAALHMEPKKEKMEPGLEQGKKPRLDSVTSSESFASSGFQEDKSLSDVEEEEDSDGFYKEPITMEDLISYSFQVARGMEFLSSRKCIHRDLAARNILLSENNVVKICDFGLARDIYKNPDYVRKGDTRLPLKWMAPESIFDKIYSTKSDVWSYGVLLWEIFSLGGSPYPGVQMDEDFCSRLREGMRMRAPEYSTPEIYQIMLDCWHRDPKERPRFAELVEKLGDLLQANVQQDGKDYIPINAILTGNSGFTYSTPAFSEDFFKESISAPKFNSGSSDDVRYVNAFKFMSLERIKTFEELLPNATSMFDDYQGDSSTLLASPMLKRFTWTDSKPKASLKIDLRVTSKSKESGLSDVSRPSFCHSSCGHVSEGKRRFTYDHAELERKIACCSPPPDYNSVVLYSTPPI
# Sequence of UniProt Q9UQ88 (whole entry, looked up): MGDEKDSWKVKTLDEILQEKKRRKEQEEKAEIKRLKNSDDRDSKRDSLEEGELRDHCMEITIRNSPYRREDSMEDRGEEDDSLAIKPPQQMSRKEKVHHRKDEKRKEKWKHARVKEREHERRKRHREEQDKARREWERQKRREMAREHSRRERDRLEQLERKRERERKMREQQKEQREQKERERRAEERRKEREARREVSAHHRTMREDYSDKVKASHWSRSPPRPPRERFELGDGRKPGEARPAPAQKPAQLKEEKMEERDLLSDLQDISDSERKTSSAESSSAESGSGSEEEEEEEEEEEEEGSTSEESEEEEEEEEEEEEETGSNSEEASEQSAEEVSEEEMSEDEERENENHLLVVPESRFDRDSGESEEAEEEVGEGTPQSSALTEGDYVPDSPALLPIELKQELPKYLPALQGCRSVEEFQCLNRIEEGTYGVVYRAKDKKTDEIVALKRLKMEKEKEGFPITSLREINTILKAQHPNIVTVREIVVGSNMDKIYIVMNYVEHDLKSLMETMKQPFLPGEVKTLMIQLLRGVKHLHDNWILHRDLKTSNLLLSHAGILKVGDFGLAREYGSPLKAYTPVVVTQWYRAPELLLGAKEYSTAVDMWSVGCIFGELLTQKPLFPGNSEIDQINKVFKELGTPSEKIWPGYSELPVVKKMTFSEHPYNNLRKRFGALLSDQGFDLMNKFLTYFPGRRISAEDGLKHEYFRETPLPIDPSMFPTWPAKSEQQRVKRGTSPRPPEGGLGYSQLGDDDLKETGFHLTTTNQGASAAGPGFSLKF
# Sequence of UniProt P51451 (whole entry, looked up): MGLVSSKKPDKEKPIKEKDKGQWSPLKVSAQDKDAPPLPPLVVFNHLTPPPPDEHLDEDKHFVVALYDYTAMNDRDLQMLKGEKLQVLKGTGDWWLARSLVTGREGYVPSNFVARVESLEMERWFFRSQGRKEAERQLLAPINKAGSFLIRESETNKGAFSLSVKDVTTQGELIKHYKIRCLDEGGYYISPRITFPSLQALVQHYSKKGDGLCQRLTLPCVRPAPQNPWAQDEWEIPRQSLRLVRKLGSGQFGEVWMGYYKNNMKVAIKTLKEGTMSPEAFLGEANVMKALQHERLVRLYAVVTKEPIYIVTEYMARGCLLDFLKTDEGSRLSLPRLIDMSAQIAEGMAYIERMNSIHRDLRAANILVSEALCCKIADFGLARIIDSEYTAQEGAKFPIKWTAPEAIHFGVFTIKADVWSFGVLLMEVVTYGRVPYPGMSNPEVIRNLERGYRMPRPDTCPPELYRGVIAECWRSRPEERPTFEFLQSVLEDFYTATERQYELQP
# Sequence of UniProt O14965 (whole entry, looked up): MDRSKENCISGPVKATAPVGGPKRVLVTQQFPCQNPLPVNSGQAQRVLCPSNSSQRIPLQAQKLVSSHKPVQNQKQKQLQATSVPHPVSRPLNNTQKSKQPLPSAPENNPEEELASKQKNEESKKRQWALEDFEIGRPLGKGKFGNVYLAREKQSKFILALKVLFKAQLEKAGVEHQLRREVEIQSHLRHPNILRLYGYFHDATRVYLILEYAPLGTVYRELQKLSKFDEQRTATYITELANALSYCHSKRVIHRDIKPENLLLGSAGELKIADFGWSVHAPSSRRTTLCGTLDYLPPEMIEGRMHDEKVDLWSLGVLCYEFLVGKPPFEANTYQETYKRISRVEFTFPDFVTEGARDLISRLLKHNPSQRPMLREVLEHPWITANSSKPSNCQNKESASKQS
# Sequence of UniProt P21709 (whole entry, looked up): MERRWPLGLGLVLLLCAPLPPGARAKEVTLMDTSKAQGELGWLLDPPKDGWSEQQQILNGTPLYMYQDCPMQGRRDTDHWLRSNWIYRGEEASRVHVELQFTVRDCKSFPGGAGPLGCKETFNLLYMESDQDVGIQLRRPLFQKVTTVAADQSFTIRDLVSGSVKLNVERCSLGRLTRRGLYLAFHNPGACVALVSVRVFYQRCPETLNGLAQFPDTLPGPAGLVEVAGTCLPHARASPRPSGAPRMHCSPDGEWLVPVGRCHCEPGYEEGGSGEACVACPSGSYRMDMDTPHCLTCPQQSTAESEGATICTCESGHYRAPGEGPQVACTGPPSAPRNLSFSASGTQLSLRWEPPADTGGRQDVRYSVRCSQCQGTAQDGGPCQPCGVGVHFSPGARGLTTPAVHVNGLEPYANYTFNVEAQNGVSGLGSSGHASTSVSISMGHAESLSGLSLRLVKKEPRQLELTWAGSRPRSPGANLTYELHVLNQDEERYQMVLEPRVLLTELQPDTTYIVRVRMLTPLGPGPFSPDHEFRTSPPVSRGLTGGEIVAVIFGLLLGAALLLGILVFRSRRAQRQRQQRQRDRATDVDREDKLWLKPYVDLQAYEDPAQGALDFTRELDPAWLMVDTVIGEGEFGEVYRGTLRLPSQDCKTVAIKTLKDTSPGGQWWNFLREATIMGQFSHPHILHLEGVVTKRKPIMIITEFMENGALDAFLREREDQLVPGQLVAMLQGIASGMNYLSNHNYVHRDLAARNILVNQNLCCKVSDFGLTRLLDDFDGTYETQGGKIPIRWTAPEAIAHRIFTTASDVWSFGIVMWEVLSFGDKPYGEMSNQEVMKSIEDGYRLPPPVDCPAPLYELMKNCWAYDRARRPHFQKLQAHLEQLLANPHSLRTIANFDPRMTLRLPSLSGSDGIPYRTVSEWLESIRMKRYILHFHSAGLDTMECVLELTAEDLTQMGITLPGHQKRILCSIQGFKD

# Series 1
# Target: Serine/threonine-protein kinase SIK2 (SIK2, Homo sapiens, UniProt Q9H0K1)
# Sequence of UniProt Q9H0K1 (whole entry, looked up): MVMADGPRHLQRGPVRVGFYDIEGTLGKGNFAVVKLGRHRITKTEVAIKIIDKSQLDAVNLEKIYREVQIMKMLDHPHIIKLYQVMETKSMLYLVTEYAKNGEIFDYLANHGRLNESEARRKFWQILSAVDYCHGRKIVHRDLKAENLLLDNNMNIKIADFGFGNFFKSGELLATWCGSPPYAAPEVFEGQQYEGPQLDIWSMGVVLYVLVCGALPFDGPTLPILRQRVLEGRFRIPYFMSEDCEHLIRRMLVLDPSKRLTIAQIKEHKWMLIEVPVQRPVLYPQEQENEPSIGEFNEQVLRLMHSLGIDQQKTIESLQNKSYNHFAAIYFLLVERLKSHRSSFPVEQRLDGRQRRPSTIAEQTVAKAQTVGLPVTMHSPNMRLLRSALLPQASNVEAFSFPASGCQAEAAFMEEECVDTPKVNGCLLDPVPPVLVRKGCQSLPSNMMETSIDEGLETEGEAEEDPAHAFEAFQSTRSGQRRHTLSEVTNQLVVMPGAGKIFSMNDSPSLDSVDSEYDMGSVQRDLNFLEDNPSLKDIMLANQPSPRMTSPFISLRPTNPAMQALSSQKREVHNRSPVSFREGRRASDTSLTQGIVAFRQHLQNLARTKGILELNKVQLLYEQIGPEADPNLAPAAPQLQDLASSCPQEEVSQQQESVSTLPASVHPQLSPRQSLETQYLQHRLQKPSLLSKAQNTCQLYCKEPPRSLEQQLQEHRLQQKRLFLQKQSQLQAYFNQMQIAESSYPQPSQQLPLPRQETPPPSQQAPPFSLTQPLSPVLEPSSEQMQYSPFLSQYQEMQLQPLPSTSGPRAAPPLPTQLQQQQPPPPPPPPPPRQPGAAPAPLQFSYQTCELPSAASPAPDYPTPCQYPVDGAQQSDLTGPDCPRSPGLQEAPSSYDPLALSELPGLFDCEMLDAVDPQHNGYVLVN
# Read-out: enzyme activity
# Mode: inhibitor
# Tested at: 0.5 µM
# Relative to: control
Structure (SMILES),remaining activity
Cn1sc(=O)n(Cc2ccccc2)c1=O,98.6%
CO[C@H]1C[C@@H]2CC[C@@H](C)[C@@](O)(O2)C(=O)C(=O)N2CCCC[C@H]2C(=O)O[C@H]([C@H](C)C[C@@H]2CC[C@@H](O)[C@H](OC)C2)CC(=O)[C@H](C)/C=C(\C)[C@@H](O)[C@@H](OC)C(=O)[C@H](C)C[C@H](C)/C=C/C=C/C=C/1C,94.3%
O=C(Nc1cccc(Nc2cc(Nc3cccc(C(F)(F)F)c3)ncn2)c1)C1CC1,89.4%
O=C(CCCc1ccc(-c2ccccc2F)cc1)Nc1ccc(O)cc1,102%
NCCNc1ncc(C(N)=O)c(Nc2cccc(C(F)(F)F)c2)n1,80.1%
O=S(=O)(c1cccc2cnccc12)N1CCCNCC1,97.7%
CC(C)[C@H](CO)Nc1nc(Nc2cc(N)cc(Cl)c2)c2ncn(C(C)C)c2n1,104%
COc1ccc(C(=O)Nc2sc3c(c2C(N)=O)CCCC3)cc1OC,102%
COc1cc2ncnc(Nc3ccc(F)c(Cl)c3)c2cc1OCCCN1CCOCC1,49.3%
CNC(=O)c1cc(Oc2ccc(NC(=O)Nc3ccc(Cl)c(C(F)(F)F)c3)cc2)ccn1,102%

# Series 2
# Structure (SMILES): CN(C)CC#Cc1ccc(OCCCc2sc(N3CCc4cccc(C(=O)Nc5nc6ccccc6s5)c4C3)nc2C(=O)O)c(F)c1
# Technique: competition with immobilised ligand
# Tested at: 1 µM
target,assay,remaining binding
"Cyclin-dependent kinase 11A (CDK11A, Homo sapiens, UniProt Q9UQ88)",binding,100%
"Serine/threonine-protein kinase 32A (STK32A, Homo sapiens, UniProt Q8WU08)",cell-free assay,100%
"Vascular endothelial growth factor receptor 1 (FLT1, Homo sapiens, UniProt P17948)",cell-free assay,92%
"Receptor tyrosine-protein kinase erbB-4 (ERBB4, Homo sapiens, UniProt Q15303)",cell-free assay,99%
"Calcium/calmodulin-dependent protein kinase type IV (CAMK4, Homo sapiens, UniProt Q16566)",cell-free assay,98%
"Platelet-derived growth factor receptor beta (PDGFRB, Homo sapiens, UniProt P09619)",cell-free assay,94%
"MAP kinase-activated protein kinase 2 (MAPKAPK2, Homo sapiens, UniProt P49137)",cell-free assay,88%
"Tyrosine-protein kinase Lyn (LYN, Homo sapiens, UniProt P07948)",cell-free assay,100%
"Ephrin type-B receptor 2 (EPHB2, Homo sapiens, UniProt P29323)",cell-free assay,100%
"Calcium/calmodulin-dependent protein kinase type II subunit beta (CAMK2B, Homo sapiens, UniProt Q13554)",cell-free assay,79%
"Serine/threonine-protein kinase Nek6 (NEK6, Homo sapiens, UniProt Q9HC98)",cell-free assay,100%
"STE20/SPS1-related proline-alanine-rich protein kinase (STK39, Homo sapiens, UniProt Q9UEW8)",cell-free assay,100%
"Aurora kinase A (AURKA, Homo sapiens, UniProt O14965)",cell-free assay,92%
"Dual specificity protein kinase CLK2 (CLK2, Homo sapiens, UniProt P49760)",cell-free assay,83%
"Tyrosine-protein kinase ABL2 (ABL2, Homo sapiens, UniProt P42684)",cell-free assay,100%
"cAMP-dependent protein kinase catalytic subunit PRKX (PRKX, Homo sapiens, UniProt P51817)",cell-free assay,98%
"Serine/threonine-protein kinase Nek7 (NEK7, Homo sapiens, UniProt Q8TDX7)",cell-free assay,99%
"Ephrin type-A receptor 1 (EPHA1, Homo sapiens, UniProt P21709)",cell-free assay,100%
"Tyrosine-protein kinase Blk (BLK, Homo sapiens, UniProt P51451)",cell-free assay,92%
"Receptor-type tyrosine-protein kinase FLT3 (FLT3, Homo sapiens, UniProt P36888, D835V)",cell-free assay,100%
"Phosphatidylinositol 5-phosphate 4-kinase type-2 beta (PIP4K2B, Homo sapiens, UniProt P78356)",cell-free assay,80%
"Serine/threonine-protein kinase Sgk2 (SGK2, Homo sapiens, UniProt Q9HBY8)",cell-free assay,100%
"MAP kinase-interacting serine/threonine-protein kinase 1 (MKNK1, Homo sapiens, UniProt Q9BUB5)",cell-free assay,78%

# Series 3
# Target: TAR DNA-binding protein 43, full length, His tag (TARDBP, Homo sapiens, UniProt Q13148, residues 1-414)
# Technique: RNA Bind-n-Seq
# Molecule type: RNA
# Medium: in vitro
# Tested at: 20 nM
# Setting: 6-mer, flanks averaged, single round
# With: 150 mM KCl
# Relative to: input library
# Direction: higher = stronger binding
Strand,6-mer enrichment (R)
UCGAAU,0.641
UUUUUA,0.779
UGGCCU,0.812
ACAAAG,0.771
AUGCAC,0.695
ACGCCA,0.697
AGAUUA,0.585
GAGUUA,0.816

# Series 4
# Target: Interferon regulatory factor 5, full length, phosphomimetic (IRF5, Homo sapiens, UniProt Q13568-2, residues 1-514, S451D/S453D/S456D/S462D)
# Technique: protein-binding microarray
# Molecule type: double-stranded DNA, one strand shown
# Medium: in vitro
# Tested at: 940 nM top
# Setting: 60-bp whole probe
# With: salmon DNA 0.4 mg/ml
# Relative to: random background probes
# Direction: higher = stronger binding
# All sequences stand within: GCCTAGCAC … GTCTTGATTCGCTTGACGCTGCTG
Strand,fitted relative affinity [z-score]
CTCATTCTCCACTTGTGTTTGTGCTAG,0.775
TTAGGACTGGGGACTAGGTTAGTGCTA,-0.38
TCATTTTTTTTTTACTTACTGTGCTAG,1.76
TTCGGTATCGGTTTCGGTTAGTGCTAG,12.7
GACGGACTGGGGACTGCGGACGTGCTA,-0.373
TTAGAACTGGGACTGGGTTAGTGCTAG,-0.649
GACGGTTTCGGTTTCGTGACGTGCTAG,13
TTAGGGCTGGGGTTTCGGTTAGTGCTA,5.99

# Excerpt of the above (series 4):
Strand,fitted relative affinity [z-score]
TTAGGACTGGGGACTAGGTTAGTGCTA,-0.38
TCATTTTTTTTTTACTTACTGTGCTAG,1.76
TTCGGTATCGGTTTCGGTTAGTGCTAG,12.7
GACGGACTGGGGACTGCGGACGTGCTA,-0.373
